Assay results from different studies.
A part holds a random share of what one study measured.
UniProt P28335, sequence (whole entry, looked up): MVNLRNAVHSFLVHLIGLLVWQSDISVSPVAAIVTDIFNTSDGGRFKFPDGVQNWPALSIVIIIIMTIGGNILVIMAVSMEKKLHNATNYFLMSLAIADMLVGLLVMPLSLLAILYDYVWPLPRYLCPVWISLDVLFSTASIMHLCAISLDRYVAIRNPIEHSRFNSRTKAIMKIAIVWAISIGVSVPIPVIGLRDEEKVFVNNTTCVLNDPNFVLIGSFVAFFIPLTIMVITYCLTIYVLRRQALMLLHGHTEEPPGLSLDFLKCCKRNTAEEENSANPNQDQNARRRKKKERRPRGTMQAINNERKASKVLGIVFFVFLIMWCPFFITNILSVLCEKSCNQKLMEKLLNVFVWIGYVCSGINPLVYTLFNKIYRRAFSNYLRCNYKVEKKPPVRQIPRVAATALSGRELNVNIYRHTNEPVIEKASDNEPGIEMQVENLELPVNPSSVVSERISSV
UniProt P04070, sequence (whole entry, looked up): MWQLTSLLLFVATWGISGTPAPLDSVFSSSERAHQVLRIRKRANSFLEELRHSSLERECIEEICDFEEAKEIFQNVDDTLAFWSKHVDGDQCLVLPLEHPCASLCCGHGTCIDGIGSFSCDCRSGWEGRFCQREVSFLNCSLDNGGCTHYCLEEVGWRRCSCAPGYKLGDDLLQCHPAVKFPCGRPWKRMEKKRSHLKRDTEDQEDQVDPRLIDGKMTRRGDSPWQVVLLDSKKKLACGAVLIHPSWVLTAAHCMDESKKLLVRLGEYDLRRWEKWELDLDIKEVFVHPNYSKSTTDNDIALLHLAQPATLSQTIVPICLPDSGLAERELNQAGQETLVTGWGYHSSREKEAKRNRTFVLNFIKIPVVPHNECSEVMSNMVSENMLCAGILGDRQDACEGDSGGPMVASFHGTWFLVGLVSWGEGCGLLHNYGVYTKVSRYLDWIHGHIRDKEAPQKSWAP
UniProt P31645, sequence (whole entry, looked up): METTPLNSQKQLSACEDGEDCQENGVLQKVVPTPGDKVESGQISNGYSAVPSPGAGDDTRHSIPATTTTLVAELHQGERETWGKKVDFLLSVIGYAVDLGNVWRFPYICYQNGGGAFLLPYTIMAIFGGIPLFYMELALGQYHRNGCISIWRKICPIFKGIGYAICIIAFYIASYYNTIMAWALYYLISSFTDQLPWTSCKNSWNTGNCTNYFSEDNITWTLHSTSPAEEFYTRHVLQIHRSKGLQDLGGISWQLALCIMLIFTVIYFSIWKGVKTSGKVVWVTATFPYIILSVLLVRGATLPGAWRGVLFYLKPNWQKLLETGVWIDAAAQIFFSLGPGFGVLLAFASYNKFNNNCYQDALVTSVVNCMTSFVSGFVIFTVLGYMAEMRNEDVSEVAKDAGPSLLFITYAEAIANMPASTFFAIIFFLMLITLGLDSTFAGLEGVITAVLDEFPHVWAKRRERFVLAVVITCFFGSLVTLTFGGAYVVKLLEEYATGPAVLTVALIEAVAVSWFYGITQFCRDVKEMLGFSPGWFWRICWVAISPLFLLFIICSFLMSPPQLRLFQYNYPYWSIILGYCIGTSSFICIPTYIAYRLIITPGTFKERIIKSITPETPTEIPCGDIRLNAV
UniProt P56817, sequence (whole entry, looked up): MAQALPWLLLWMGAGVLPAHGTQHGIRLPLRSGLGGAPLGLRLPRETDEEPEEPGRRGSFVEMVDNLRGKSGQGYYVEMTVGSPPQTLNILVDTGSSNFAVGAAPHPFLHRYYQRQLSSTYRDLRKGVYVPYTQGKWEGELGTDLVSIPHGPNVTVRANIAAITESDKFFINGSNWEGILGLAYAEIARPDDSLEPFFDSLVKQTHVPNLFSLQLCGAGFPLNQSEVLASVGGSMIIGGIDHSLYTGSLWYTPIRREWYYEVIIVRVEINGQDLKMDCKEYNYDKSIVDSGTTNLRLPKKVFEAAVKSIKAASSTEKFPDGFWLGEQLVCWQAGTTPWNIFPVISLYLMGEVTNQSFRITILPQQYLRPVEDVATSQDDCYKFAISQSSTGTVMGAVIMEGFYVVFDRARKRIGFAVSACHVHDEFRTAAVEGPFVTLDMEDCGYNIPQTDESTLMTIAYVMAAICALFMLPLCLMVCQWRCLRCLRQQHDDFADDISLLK

Series 1
SMILES: N=C(N)c1ccc2cc(OC(=O)c3ccc(N=C(N)N)cc3)ccc2c1
Concentration: 10 µM
| target | assay | inhibition [%] |
| --- | --- | --- |
| Genome polyprotein, NS3 protease (Hepatitis C virus genotype 1b, UniProt Q9WMX2, R1181Q) | – | 58 |
| Vitamin K-dependent protein C (PROC, Homo sapiens, UniProt P04070) | enzyme activity, inhibitor | 98 |
| Beta-secretase 1 (BACE1, Homo sapiens, UniProt P56817) | – | 0 |

Further values, each from its own experiment
| SMILES | tested on | assay | test system | setting | quantity | result |
| --- | --- | --- | --- | --- | --- | --- |
| COC(=O)Nc1nc2ccccc2[nH]1 | A-375 | – | – | 100 µM, 36 h | viability | 45.6% |
| C[C@H](c1ccnc(Nc2nc3ccc(-c4cc(N(C)C)ncn4)cc3[nH]2)c1)N1CCN(C(=O)CC(F)(F)F)CC1 | Sodium-dependent serotonin transporter (SLC6A4, Homo sapiens, UniProt P31645) | ligand displacement | – | 10 µM | inhibition | 21.6% |
| C[C@]12CCC(=O)C(O)=C1CC[C@@H]1[C@@H]2CC[C@]2(C)C(=O)CC[C@@H]12 | A-375 | – | – | 100 µM, 36 h | viability | 81.9% |
| CC(=O)N[C@@H](Cc1c[nH]c2ccccc12)C(=O)N[C@@H](CCC(=O)C=[N+]=[N-])C(=O)OC(C)C | – | – | C57BL/6 CES1-/- mouse, blood | intravenous, 1 mg/kg equivalent | haematocrit | 21.9% |
| CCNCC(O)c1cccc(O)c1 (stereo not drawn) | A-375 | – | – | 100 µM, 36 h | viability | 101% |
| CC(=O)Nc1c(F)cc(C(=O)N[C@H]2CC[C@H](O)CC2)cc1O[C@@H](C)c1ccccc1 | 5-hydroxytryptamine receptor 2C (HTR2C, Homo sapiens, UniProt P28335) | binding, radioligand binding | – | 10 µM | inhibition | 14% |
